Measured values gathered from unrelated publications.
Compare with care: the assays were run in different laboratories.
CTSL: Procathepsin L (CTSL, Homo sapiens, UniProt P07711)
Sequence of UniProt P07711 (whole entry, looked up): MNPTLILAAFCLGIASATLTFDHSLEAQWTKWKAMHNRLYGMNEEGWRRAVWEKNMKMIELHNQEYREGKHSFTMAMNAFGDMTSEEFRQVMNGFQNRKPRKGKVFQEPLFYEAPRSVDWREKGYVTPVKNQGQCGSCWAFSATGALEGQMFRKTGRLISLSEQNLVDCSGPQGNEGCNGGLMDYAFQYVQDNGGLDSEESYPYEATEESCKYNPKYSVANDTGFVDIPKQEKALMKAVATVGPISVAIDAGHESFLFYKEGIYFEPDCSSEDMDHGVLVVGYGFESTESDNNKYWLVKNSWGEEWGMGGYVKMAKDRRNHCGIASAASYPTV
GSK3B: Glycogen synthase kinase-3 beta (GSK3B, Homo sapiens, UniProt P49841)
Sequence of UniProt P49841 (whole entry, looked up): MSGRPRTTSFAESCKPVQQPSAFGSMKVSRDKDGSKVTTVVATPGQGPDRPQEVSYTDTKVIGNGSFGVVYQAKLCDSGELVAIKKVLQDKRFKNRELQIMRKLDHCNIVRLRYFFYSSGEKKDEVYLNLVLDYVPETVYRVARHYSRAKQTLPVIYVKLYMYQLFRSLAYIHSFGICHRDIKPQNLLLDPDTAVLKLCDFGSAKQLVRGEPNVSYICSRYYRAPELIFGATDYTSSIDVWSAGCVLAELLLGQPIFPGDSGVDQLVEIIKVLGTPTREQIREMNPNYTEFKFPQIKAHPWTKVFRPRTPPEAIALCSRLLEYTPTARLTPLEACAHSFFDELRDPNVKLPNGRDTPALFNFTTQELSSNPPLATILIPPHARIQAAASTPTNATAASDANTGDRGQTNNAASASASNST
ST14: Suppressor of tumorigenicity 14 protein (ST14, Homo sapiens, UniProt Q9Y5Y6)
Sequence of UniProt Q9Y5Y6 (whole entry, looked up): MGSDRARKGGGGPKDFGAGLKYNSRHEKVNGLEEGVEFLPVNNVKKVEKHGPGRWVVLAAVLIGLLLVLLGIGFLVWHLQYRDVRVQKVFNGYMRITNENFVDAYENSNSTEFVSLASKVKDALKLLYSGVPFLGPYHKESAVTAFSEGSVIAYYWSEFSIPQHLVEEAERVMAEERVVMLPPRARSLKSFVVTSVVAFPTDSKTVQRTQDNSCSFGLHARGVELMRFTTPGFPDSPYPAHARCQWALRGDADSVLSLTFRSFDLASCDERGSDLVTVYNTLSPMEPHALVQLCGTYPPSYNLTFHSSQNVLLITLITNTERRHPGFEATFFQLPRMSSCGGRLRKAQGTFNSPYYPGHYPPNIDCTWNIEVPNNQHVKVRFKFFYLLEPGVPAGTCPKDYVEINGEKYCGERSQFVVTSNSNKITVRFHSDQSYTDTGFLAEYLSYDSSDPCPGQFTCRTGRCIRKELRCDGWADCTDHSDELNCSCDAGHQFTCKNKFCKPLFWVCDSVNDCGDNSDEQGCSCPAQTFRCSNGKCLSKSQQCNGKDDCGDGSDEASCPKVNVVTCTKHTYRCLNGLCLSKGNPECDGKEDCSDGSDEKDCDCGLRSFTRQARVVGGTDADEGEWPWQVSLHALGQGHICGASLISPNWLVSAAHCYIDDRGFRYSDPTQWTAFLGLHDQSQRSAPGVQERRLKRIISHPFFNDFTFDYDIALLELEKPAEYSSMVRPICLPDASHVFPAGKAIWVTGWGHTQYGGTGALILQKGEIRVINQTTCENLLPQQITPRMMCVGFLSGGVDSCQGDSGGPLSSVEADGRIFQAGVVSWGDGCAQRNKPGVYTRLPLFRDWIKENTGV
MPO: Myeloperoxidase (MPO, Homo sapiens, UniProt P05164)
Sequence of UniProt P05164 (whole entry, looked up): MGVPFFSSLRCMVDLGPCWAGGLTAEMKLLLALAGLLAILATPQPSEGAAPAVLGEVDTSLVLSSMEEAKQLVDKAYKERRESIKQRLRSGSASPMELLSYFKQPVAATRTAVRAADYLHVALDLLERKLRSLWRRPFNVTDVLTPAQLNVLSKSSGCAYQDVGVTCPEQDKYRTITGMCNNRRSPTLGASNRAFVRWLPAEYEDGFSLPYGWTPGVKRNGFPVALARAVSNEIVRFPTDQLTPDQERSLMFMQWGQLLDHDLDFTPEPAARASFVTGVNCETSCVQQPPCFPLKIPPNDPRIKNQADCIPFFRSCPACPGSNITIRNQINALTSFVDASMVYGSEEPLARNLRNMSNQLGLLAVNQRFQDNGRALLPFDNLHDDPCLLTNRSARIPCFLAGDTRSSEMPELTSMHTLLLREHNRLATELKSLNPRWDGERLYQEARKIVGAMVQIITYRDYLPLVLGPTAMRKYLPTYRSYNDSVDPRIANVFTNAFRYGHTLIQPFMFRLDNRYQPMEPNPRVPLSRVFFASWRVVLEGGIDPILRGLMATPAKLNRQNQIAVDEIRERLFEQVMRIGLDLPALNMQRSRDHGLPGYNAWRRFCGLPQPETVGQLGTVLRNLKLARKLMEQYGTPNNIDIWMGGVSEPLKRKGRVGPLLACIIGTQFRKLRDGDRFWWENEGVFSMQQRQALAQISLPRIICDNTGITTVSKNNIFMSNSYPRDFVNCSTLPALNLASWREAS
Sequence of UniProt Q8N568 (whole entry, looked up): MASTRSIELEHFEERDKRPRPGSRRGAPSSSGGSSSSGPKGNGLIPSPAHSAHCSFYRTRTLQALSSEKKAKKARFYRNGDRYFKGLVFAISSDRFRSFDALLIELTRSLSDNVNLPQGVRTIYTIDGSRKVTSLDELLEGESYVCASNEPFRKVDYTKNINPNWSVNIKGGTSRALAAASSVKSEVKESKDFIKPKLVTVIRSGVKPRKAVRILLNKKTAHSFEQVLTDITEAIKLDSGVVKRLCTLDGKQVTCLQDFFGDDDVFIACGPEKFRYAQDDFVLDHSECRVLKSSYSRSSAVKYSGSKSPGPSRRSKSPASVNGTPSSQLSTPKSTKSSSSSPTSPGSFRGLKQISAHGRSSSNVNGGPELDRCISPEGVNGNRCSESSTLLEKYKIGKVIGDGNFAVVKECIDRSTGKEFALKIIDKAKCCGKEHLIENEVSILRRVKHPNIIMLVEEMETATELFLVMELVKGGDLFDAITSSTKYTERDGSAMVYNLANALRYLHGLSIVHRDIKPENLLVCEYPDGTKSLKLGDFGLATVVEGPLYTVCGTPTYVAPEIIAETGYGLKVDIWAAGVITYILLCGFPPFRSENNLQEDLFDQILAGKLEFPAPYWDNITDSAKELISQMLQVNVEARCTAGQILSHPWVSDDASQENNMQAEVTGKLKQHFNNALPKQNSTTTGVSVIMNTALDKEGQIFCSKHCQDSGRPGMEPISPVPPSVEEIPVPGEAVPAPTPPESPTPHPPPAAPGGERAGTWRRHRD
Sequence of UniProt P49759 (whole entry, looked up): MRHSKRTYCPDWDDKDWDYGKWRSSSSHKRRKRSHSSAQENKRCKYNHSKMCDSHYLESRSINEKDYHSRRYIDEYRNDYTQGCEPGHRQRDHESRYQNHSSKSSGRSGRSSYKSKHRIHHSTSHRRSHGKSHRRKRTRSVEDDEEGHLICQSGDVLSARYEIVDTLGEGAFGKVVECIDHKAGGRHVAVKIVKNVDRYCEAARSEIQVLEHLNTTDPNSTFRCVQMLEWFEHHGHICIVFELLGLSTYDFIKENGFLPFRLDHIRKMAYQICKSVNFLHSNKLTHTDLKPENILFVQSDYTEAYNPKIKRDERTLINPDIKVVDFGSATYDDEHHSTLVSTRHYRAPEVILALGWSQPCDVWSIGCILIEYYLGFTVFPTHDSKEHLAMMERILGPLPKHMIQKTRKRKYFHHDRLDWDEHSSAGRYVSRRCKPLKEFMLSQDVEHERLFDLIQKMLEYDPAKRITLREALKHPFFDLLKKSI
Sequence of UniProt O60331 (whole entry, looked up): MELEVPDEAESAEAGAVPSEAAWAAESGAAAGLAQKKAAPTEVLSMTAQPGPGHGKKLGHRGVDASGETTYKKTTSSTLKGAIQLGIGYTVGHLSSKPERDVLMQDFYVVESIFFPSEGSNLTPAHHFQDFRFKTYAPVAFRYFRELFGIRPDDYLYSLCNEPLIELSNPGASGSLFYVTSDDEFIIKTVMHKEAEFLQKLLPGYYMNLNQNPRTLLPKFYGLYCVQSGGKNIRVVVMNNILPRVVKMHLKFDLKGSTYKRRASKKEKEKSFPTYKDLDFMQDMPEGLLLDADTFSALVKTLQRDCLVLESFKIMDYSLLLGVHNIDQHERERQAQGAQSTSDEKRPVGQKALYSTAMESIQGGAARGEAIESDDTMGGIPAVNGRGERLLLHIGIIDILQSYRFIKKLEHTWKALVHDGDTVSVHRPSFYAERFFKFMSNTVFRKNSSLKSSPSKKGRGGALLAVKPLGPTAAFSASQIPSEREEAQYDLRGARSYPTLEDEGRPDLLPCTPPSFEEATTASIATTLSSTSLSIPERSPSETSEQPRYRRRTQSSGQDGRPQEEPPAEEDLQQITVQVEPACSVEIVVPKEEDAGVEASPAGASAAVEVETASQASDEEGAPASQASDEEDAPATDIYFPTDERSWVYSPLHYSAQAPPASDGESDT
Sequence of UniProt O15264 (whole entry, looked up): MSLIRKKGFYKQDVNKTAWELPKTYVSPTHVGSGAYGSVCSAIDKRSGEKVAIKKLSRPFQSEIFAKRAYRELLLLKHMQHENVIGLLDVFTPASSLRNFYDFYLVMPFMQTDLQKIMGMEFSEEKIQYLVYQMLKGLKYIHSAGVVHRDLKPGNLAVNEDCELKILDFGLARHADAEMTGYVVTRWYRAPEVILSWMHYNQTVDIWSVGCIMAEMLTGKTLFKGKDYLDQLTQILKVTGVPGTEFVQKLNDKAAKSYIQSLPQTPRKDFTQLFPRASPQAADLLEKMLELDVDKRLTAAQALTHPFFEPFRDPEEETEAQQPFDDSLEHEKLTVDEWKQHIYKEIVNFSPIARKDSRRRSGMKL
Sequence of UniProt P53778 (whole entry, looked up): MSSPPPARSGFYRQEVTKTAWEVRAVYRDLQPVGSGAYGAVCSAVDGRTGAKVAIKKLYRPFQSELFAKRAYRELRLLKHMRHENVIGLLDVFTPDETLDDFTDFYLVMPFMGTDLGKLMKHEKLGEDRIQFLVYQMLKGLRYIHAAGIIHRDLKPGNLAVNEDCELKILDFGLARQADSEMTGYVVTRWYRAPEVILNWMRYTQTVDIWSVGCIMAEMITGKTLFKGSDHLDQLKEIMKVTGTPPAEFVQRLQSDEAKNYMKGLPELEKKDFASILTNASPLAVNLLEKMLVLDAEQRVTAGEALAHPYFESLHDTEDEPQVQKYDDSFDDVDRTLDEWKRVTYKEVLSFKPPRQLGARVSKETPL

For Oc1cc(O)c2c(c1)OC(c1cc(O)c(O)c(O)c1)C(O)C2 (stereo not drawn), the remaining activity was 107% (CTSL; enzyme activity, inhibitor; 100 µM).
Cc1cc([C@@H](C)Nc2ccccc2C(=O)O)c2nc(N3CCC(F)(F)CC3)c(C#N)c(=O)n2c1 gave a remaining activity of 108% (Phosphatidylinositol 4-phosphate 5-kinase type-1 gamma (PIP5K1C, Homo sapiens, UniProt O60331); enzyme activity, inhibitor, ADP detection; 10 µM).
With CC(=NNC(=O)c1ccccc1O)c1ccc(Nc2nnc(-c3ccc(Cl)cc3)c3ccccc23)cc1 the viability was 5.31% (MCF7; cell growth or viability, MTT; 10 µM, 24 h).
The inhibition of Cc1cccc(N(O)N=Nc2ccc(S(=O)(=O)Nc3nccs3)cc2)c1 is reported as 54.2% (ABTS scavenging; 120 µg/mL).
CC[C@H](C)[C@H](NC(=O)[C@H](CCC(N)=O)NC(=O)[C@H](CC(C)C)NC(=O)[C@H](CCSC)NC(=O)[C@H](CCCCN)NC(=O)[C@H](CO)NC(=O)[C@H](CO)NC(=O)[C@H](CCSC)NC(=O)[C@H](CC(C)C)NC(=O)[C@H](CC(N)=O)NC(=O)[C@@H](NC(=O)[C@@H](NC(=O)[C@H](CO)NC(=O)[C@H](CC(C)C)NC(=O)[C@H](CS)NC(=O)[C@H](CCCNC(=N)N)NC(=O)[C@H](CC(=O)O)NC(=O)[C@H](Cc1c[nH]c2ccccc12)NC(=O)[C@H](Cc1ccccc1)NC(=O)[C@H](C)NC(=O)[C@H](CCC(=O)O)NC(=O)[C@@H](N)CCCCN)C(C)C)[C@@H](C)CC)C(=O)N[C@@H](CC(N)=O)C(=O)N[C@@H](C)C(=O)O has a remaining activity of 119% (GSK3B; enzyme activity, inhibitor, radiometric; 250 µM, 20 min).
With CN(Cc1ccc(C2(C(F)(F)F)CC2)cc1)Cc1cccc2ccccc12 the inhibition zone was 0 mm (Trichophyton rubrum; microbial growth, disc diffusion; ATCC28188; 0.00025 µg/mL, 6 days).
C=CC(=O)N1CCC(COCC(=O)N2CCN(c3nc(-c4cnc(N)nc4C(F)F)nc(N4CCOC[C@@H]4C)n3)CC2)CC1 has a remaining binding of 92% (Dual specificity protein kinase CLK1 (CLK1, Homo sapiens, UniProt P49759); binding, competition with immobilised ligand; 1 µM).
The remaining activity of N=C(N)NCCC[C@H](NC(=O)[C@H](Cc1ccncc1)NC(=O)[C@H](Cc1cscn1)NC(=O)CCc1ccccc1)C(=O)c1nc2ccccc2s1 is reported as 62% (ST14; enzyme activity, inhibitor; 0.1 µM).
The remaining activity of CNc1ncc2c(/C=C/C(=O)N3CCC(OC)CC3)nn(Cc3cccc(C(F)(F)F)c3)c2n1 is reported as 88% (Serine/threonine-protein kinase DCLK2 (DCLK2, Homo sapiens, UniProt Q8N568); enzyme activity, inhibitor, radiometric; 1 µM).
CCCOc1ccc(OC)c(F)c1C(=O)c1ccc(C(=O)N[C@@H]2CNC[C@H]2NC(=O)c2ccc3[nH]ncc3c2)cc1 has a remaining activity of 16% (Cyclin-dependent kinase 5, with p35 (CDK5, Homo sapiens, UniProt Q00535); enzyme activity, inhibitor; 10 µM).
For NC[C@H]1O[C@H](O[C@H]2[C@H](O)[C@@H](O[C@H]3O[C@H](CO)[C@@H](O)[C@H](N)[C@H]3O)[C@H](N)C[C@@H]2N)[C@H](N)C[C@@H]1O, the remaining activity was 89.4% (CTSL; enzyme activity, inhibitor; 100 µM).
N=C(N)NCCC[C@H](NC(=O)[C@@H](CC1CCCCC1)NC(=O)[C@H](Cc1cscn1)NC(=O)CCc1ccccc1)C(=O)c1nc2ccccc2s1 has a remaining activity of 94% (Transmembrane protease serine 6 (Homo sapiens, UniProt Q8IU80); enzyme activity, inhibitor; 0.1 µM).
CSCC[C@H](NC(=O)[C@H](Cc1ccccc1)NC(=O)[C@H](Cc1c[nH]cn1)NC(=O)CNC(=O)[C@@H](NC(=O)[C@H](C)NC(=O)[C@H](Cc1c[nH]c2ccccc12)NC(=O)[C@H](CCC(N)=O)NC(=O)[C@@H]1CCC(=O)N1)C(C)C)C(N)=O gave a remaining activity of 53.2% (CTSL; enzyme activity, inhibitor; 100 µM).
With COc1cc(-c2cncc3c2CN(C)Cc2cc(N4CCNCC4)ccc2-3)cc(OC)c1OC the remaining activity was 106% (Mitogen-activated protein kinase 12 (MAPK12, Homo sapiens, UniProt P53778); enzyme activity, inhibitor; 1 µM).
For CC(C)(O)[C@H]1CC[C@H](Nc2ccc3ncc(-c4cccc(C(F)(F)F)c4)n3n2)CC1, the remaining activity was 96.1% (Mitogen-activated protein kinase 13 (MAPK13, Homo sapiens, UniProt O15264); enzyme activity, inhibitor; 1 µM).
CC[C@H](C)[C@H](NC(=O)[C@H](Cc1cscn1)NC(=O)CCc1ccccc1)C(=O)N[C@@H](CCCNC(=N)N)C(=O)c1nc2ccccc2s1 gave a remaining activity of 8% (ST14; enzyme activity, inhibitor; 0.1 µM).
COc1cc(O)c(C(=O)/C=C/c2ccccc2)c(OC)c1 gave a remaining activity of 7.19% (CTSL; enzyme activity, inhibitor; 100 µM).
Nc1ncnc2occ(-c3ccc(NC(=O)Nc4cc(C(F)(F)F)ccc4F)cc3)c12 gave a remaining signal of 3.3% (Tyrosine-protein kinase ABL1, phosphorylated (ABL1, Homo sapiens, UniProt P00519, M351T); cell-free assay, inhibitor; 20 µM).
The remaining activity of COc1ccc(Cl)cc1-c1cc(=O)[nH]c(=S)n1CC(N)=O is reported as 105% (MPO; enzyme activity, inhibitor; 0.156 µM).
CC(=NNC(=S)Nc1ccccc1)c1ccc(Nc2nnc(-c3ccc(Cl)cc3)c3ccccc23)cc1 gave a cell death of 96.5% (MCF7; cell growth or viability, MTT; 10 µM).
Cc1cc(NS(=O)(=O)c2ccc(N=NN(O)c3ccccc3)cc2)no1 has an inhibition of 62.8% (ABTS scavenging; 120 µg/mL).
With C=CCS[S+]([O-])CC=C (stereo not drawn) the remaining activity was 101% (CTSL; enzyme activity, inhibitor; 100 µM).
NS(=O)(=O)c1ccc(CNc2nc(Nc3cccc(CN4CCOCC4)c3)ncc2Br)cc1 gave a remaining activity of 39% (Serine/threonine-protein kinase 17B (STK17B, Homo sapiens, UniProt O94768); enzyme activity, inhibitor, radiometric; 1 µM).
CC[C@H](C)[C@H](NC(=O)[C@H](CCC(N)=O)NC(=O)[C@@H](NC(=O)[C@H](CCSC)NC(=O)[C@H](CCCCN)NC(=O)[C@H](CO)NC(=O)[C@@H](NC(=O)[C@H](CCSC)NC(=O)[C@H](CC(C)C)NC(=O)[C@H](CC(N)=O)NC(=O)[C@@H](NC(=O)[C@@H](NC(=O)[C@H](CO)NC(=O)[C@H](CC(C)C)NC(=O)[C@H](C)NC(=O)[C@H](CCCNC(=N)N)NC(=O)[C@H](CCC(=O)O)NC(=O)[C@H](Cc1ccc(O)cc1)NC(=O)[C@H](Cc1ccccc1)NC(=O)[C@H](C)NC(=O)[C@H](CC(N)=O)NC(=O)[C@@H](N)CCCCN)[C@@H](C)CC)[C@@H](C)CC)[C@@H](C)O)C(C)C)C(=O)N[C@@H](CC(N)=O)C(=O)N[C@H](C(=O)O)C(C)C has a remaining activity of 106% (GSK3B; enzyme activity, inhibitor, radiometric; 50 µM, 20 min).
CCCCC(=O)Nc1ccc(-c2ccc3ncn(CCC)c(=O)c3c2)cn1 has a remaining binding of 99% (Tyrosine-protein kinase ABL1, phosphorylated (ABL1, Homo sapiens, UniProt P00519, Y253F); binding, competition with immobilised ligand; 0.5 µM).
The remaining activity of O=C(/C=C/c1ccc(O)cc1)NCCc1c[nH]c2ccc(O)cc12 is reported as 75.5% (CTSL; enzyme activity, inhibitor; 100 µM).
For NC/C(=C\F)COc1cccc(Cn2c(=S)[nH]c(=O)c3[nH]cnc32)c1, the remaining activity was 50.4% (MPO; enzyme activity, inhibitor; 83 nM).
